Measured values collected from several papers.
A part holds a random share of what one study measured. Changes are numbered by the printed parent chain.

Block 1 — method: RNA Bind-n-Seq; molecule type: RNA; medium: in vitro; concentration: 1 µM; notes: whole 134-nt RNA, ends assumed; added: 150 mM KCl; baseline: input library; direction: higher = stronger binding
Target: Ras GTPase-activating protein-binding protein 1, C-terminal RGG region (G3BP1, Homo sapiens, UniProt Q13283)
UniProt Q13283, sequence (whole entry, looked up): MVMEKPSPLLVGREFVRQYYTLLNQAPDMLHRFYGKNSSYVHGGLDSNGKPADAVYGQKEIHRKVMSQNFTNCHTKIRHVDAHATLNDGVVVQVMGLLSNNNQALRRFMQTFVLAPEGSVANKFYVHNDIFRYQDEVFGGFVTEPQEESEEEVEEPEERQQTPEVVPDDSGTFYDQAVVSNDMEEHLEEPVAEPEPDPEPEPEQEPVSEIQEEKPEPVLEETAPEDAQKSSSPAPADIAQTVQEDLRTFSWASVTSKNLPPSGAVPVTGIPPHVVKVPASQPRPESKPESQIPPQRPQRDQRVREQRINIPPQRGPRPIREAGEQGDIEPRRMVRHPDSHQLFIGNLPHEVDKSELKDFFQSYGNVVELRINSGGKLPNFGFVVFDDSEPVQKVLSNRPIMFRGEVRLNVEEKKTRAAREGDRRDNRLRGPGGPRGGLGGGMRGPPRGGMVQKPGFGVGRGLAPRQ
All sequences stand within: GGGAGUUCUACAGUCCGACGAUC … UGGAAUUCUCGGGUGUCAAGG
| Strand | log2 enrichment |
| --- | --- |
| GCAGGAAGUAAAAACAAAUGGAAAUGCGUCGGAUAGUGGCAGGGGUGGGGGUUGCUAAGGAAAGGGUGGGAUGGGAGUGGGUAAAGAGUU | 1.85 |
| CCUGUGCUACACAUCGUAUGUACCGAAUCGGUUUUUUUGGGUUUUUUUGGGUUUUUUUGGGAAAGUAUUAUGUUACGCCGUUCGGAUCUG | -1.56 |
| UGGGAGGUGGAUUUUGUUUAUUUUUUUAGCACAUUUCCAGGGGUGGGAAUUUUUUUUUAAUAUGUGUCAUGAAUAAAGUUGUUUUUGAAA | 3.42 |
| UUGUGAUUAAGAUUUGUUCUUUUUCUCCCCUCUCUAUAGGAAGAUGAUCCCUAUGAUCUUGAAGAUGUUUCUGCACAGAAAUGAGGGAAA | -0.0469 |
| CACAGACAACACGCACCCACACAGACACAGAGGGAAGGGGUUGGGAUGGGGACAGGGUGCACAGUAGGGCGGGGUAGGACCCCAGCCCCU | 0.492 |
| CAAGUCCUGUGCUACACAUCGUAUGUACCGAAUCGGAAAAAGGUUUUUGGUUUGGAAAGUAUUAUGUUACGCCGUUCGGAUCUGCACUUC | -1.94 |
| UUCCCCUGGAGGGCGCCUCCAUCCUUGGAGGCCUAGUGCCGUCGGAGAGAGAGCGGGAGCCGCGGACAGAGACGCGUGCGCAAUUCGGAG | -2.86 |
| UCCUGUGCUACACAUCGUAUGUACCGAAUCGGGAAAAAAAGGGAAAAAAAGGGAAAGGGAAAGUAUUAUGUUACGCCGUUCGGAUCUGCA | -0.724 |
| AAGUCCUGUGCUACACAUCGUAUGUACCGAAUCGGGAAAAGGGGAAAAGGGAAAAGGAAAGUAUUAUGUUACGCCGUUCGGAUCUGCACU | -1.26 |
| AUGAAGAUGAAGAAGAGGAUGAUGAGGACGAGGAUGACGACGACGACGAAGAUGAUGAAGAUGAUGAUGAUGAAGAUGAUGAGGAGGAGG | -0.461 |
| AAGUCCUGUGCUACACAUCGUAUGUACCGAAUCGGAAAGGUUUUUGGAAAAAAAGGAAAGUAUUAUGUUACGCCGUUCGGAUCUGCACUU | -2.41 |
| CUGUGCUACACAUCGUAUGUACCGAAUCGGGAAAAAAAGGGAAAAAAAGGAAAAAAAGGGGAAAGUAUUAUGUUACGCCGUUCGGAUCUG | -1.52 |
| CAAGUCCUGUGCUACACAUCGUAUGUACCGAAUCGGCCCGGCCCGGGGCCCGGGGAAAGUAUUAUGUUACGCCGUUCGGAUCUGCACUUC | -1.63 |
| ACCAUGCAGGUGGGCAUCUUUGGGAAGUGGGGCAAGGGGGGGAUAGGGAGGGGGGUAACACUUUGGGAACAUGUGGUCCCAGGUCGUUUC | 2.29 |

Block 2 — target: CCNB3, cyclin fold, Cln2 fusion (human); method: yeast growth competition, sequencing; medium: yeast; notes: weak parent motif; baseline: not given; direction: higher = stronger binding
Starting sequence: RB1 docking peptide (human); PKPLKKLRFDIEG; partner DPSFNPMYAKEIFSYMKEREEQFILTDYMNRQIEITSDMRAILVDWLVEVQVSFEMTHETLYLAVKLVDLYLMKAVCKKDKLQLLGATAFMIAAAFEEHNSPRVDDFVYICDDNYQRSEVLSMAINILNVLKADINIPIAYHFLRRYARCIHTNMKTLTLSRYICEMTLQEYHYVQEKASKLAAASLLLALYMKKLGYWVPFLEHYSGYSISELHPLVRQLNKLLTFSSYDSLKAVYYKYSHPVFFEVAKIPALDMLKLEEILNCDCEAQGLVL
| Variant | normalised enrichment score |
| --- | --- |
| D10Q | 0.153 |
| R8S | 0.00258 |
| K2Q | 0.189 |
| L4S | 0.0616 |
| P1R | 0.0126 |
| L4Y | -0.0902 |
| L7W | 0.363 |
| K2F | 0.227 |
| L4G | 0.225 |
| K6G | 0.201 |
| F9H | -0.198 |
| G13A | 0.2 |
| G13I | 0.288 |
| G13W | 0.37 |
| K2M | 0.617 |
| P1C | 1.11 |
| L4R | 0.403 |
| F9G | 0.353 |

Block 3 — method: protein-binding microarray; molecule type: double-stranded DNA, one strand shown; medium: in vitro; concentration: 2200 nM top; notes: 60-bp whole probe; added: salmon DNA 0.4 mg/ml; baseline: random background probes; direction: higher = stronger binding; all sequences stand within: GCCTAGCAC … GTCTTGATTCGCTTGACGCTGCTG
Target: Interferon regulatory factor 7, full length, phosphomimetic (IRF7, Homo sapiens, UniProt Q92985, residues 1-503, S471D/S472D/S475D/S476D/S477D/S483D/S484D/S487D)
Construct (chain): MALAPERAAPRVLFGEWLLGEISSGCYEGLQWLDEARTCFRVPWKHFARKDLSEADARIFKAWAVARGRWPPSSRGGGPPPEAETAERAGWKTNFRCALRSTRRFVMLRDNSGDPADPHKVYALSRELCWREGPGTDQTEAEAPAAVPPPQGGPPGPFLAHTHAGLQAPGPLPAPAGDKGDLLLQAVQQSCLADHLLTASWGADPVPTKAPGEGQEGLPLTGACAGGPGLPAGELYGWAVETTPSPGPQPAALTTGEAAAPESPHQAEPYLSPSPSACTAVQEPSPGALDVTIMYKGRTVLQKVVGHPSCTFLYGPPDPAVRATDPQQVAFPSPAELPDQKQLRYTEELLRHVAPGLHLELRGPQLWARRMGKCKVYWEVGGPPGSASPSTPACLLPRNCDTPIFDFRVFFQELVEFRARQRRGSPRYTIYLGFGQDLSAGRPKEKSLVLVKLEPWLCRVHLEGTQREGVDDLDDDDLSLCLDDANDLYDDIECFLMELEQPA
| Strand | fitted relative affinity |
| --- | --- |
| TTAGGGATCGGTATCGGTTAGTGCTAG | -0.0173 z-score |
| TCAAGTATTTATCTGCAACTGTGCTAG | 0.263 z-score |
| GTAGGTATCGGGTTTCGGTTAGTGCTA | 3.7 z-score |
| TTTGGTATCGACTATCGGTTAGTGCTA | 1.15 z-score |
| TTAGGACGGGGGACTGGGTTAGTGCTA | 0.352 z-score |
| TTAGGTATCCTTTTCGTTTAGTGCTAG | 3.38 z-score |
| GACGAACTGAGTATCGAGAAGTGCTAG | -0.378 z-score |
| TTAGAAATGAGTCTCGATTAGTGCTAG | -0.57 z-score |
| TTAAATTTCAGTCTCGATTAGTGCTAG | 0.598 z-score |
| TCACTCTTCCTTTACTTACTGTGCTAG | 2.67 z-score |
| GAAGAACTGGGGACTGGAGACGTGCTA | -0.421 z-score |
| TTAGAACTGGGACTGGGTTAGTGCTAG | -0.578 z-score |
| GACGGTCTCCTTCACCTGACGTGCTAG | 0.903 z-score |
| GACGGTTTCATTATCCTGACGTGCTAG | 3.61 z-score |
| TTACGACTGCTTCTCCTTTAGTGCTAG | 1.67 z-score |
| CATTGCCTATTTTTCCCCTGGTGCTAG | 1.6 z-score |
| TTAGGTCTCTTACTGCTTTAGTGCTAG | 0.621 z-score |
| CTAGAACTGAGTTTCGATTAGTGCTAG | 3.78 z-score |
| TATGTTCACTATTTAAGAACGTGCTAG | 0.864 z-score |
| GACGGTTTCGGTTTAGGGACGTGCTAG | 12.8 z-score |
| TTAGGACTGATTTTCCTTTAGTGCTAG | 1.16 z-score |
| CACCAGCGAGGGCCCGGGAGGTGCTAG | -0.659 z-score |
| GACGGTTTCCTTCTCCTGCCGTGCTAG | 2.65 z-score |
| TCAGAAATCACCCTTGGAACTGTGCTA | -0.436 z-score |
| ATAGATATGCCAAATCTGTGTGTGCTA | 0.16 z-score |

Block 4 — method: universal PBM; molecule type: double-stranded DNA, one strand shown; medium: in vitro; concentration: not given; direction: higher = stronger binding
Target: Sal-like protein 4, full length isoform B (SALL4, Homo sapiens, UniProt Q9UJQ4-2, residues 1-616)
Notes: 8-mer, flanks averaged, mean of replicates
| Strand | E-score |
| --- | --- |
| GCGGATTA | 0.0679 |
| GTGAGTGA | -0.0975 |
| AACATTCG | -0.0536 |
| CCTGCGAG | -0.174 |
| GCGGACAC | -0.308 |
| GCTATGCC | -0.0937 |
| AACCACAT | 0.237 |
| GAGTAGAA | 0.0568 |
| CATGGTGC | -0.108 |
| GGATTCAC | -0.105 |
| AATTCATC | 0.149 |
| AACAGTCC | -0.00045 |
| AGACGGAC | -0.208 |
| GCTAAGGA | -0.248 |
| CCTACTGC | -0.0693 |
| AGATGTAG | -0.0595 |
| TGCCACAA | 0.137 |
| GGACGAGA | -0.0637 |

Block 5 — target: CEP164, C-terminal peptide (human); method: DHFR complementation, deep sequencing; medium: yeast; baseline: wild type; direction: higher = weaker binding
Notes: single substitutions, model-inferred values
Starting sequence: PDZK1, PDZ domain 2 (human); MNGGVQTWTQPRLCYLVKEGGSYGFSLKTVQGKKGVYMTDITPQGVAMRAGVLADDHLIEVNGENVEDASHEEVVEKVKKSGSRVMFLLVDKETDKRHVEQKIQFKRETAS; partner HNRVKVYRF
| Variant | binding free energy change [kcal/mol] |
| --- | --- |
| G32V | 0.864 |
| D40F | 0.661 |
| R49N | 0.373 |
| G63V | 0.599 |
| C14M | 0.594 |
| E108T | -0.158 |
| K102Q | -0.107 |
| H98M | -0.0801 |
| E64Y | 0.342 |
| D40T | 1.24 |
| G32A | 0.558 |
| T9V | 0.00481 |
| D55N | 0.312 |
| L89G | 1.84 |

Block 6 — method: DHFR PCA, deep sequencing; medium: yeast; added: (+)-ABA 0.032 µM; baseline: wild-type fitted maximum; direction: higher = stronger binding
Target: ABI1, truncated, D143A, DHFR fusion (Arabidopsis thaliana)
Notes: methotrexate growth selection, single substitutions
Starting sequence: PYL1, truncated, DHFR fusion (Arabidopsis thaliana); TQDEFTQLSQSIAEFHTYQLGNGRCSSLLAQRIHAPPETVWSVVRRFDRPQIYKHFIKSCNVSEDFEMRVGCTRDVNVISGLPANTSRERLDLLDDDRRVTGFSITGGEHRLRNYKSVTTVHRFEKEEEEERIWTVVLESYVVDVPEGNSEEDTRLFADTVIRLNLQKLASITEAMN; partner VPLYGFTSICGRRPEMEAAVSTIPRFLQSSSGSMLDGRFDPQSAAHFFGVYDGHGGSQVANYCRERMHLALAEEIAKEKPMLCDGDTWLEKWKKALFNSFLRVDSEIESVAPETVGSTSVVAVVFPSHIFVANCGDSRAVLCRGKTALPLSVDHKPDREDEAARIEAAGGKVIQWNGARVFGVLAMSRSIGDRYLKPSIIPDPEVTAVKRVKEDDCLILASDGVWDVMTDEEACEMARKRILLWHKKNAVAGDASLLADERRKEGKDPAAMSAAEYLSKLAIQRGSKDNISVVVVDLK
| Variant | relative binding score [%] |
| --- | --- |
| S140Y | 5.55 |
| E38F | -5.74 |
| A175H | 9.07 |
| M68R | -1.39 |
| N177C | 42.6 |
| G107R | 5.93 |
| I33M | 3.4 |
| Q2I | 69.5 |
| V121S | -1.12 |
| V142R | -1.33 |
| K58V | -3.99 |
| S9F | 9.55 |
| C25W | 0.19 |
| R99T | -0.383 |
| A175M | 14.8 |
| R46G | -0.809 |
| R123Q | 69.9 |
| E89F | 3.02 |

Other studies, line by line
| Molecule | target | assay | test system | setting | how to read | endpoint | result |
| --- | --- | --- | --- | --- | --- | --- | --- |
| PhoQ, residues 284 288 289 292 302 303 WVSSAF | PhoP, residues 12 14 15 18 19 LYFRQ (Escherichia coli, UniProt P23836) | Sort-seq, refers to: YFP reporter | E. coli | PhoQ-PhoP variant library, added: 10 µM Mg2+ | baseline: high Mg2+ state, higher = stronger signaling | fold induction | 9.85 |

Some of these lines once more (block 4):
| Strand | E-score |
| --- | --- |
| GCTAAGGA | -0.248 |
| GGACGAGA | -0.0637 |
| GTGAGTGA | -0.0975 |
| CCTACTGC | -0.0693 |
| CCTGCGAG | -0.174 |
| AATTCATC | 0.149 |
| CATGGTGC | -0.108 |
| GGATTCAC | -0.105 |
| AACATTCG | -0.0536 |
| AGACGGAC | -0.208 |
| GCGGACAC | -0.308 |
| AGATGTAG | -0.0595 |
| AACAGTCC | -0.00045 |
| GAGTAGAA | 0.0568 |
